{"data": "Assay results collected from several papers", "target": "Atypical kinase COQ8A, mitochondrial (COQ8A, Homo sapiens, UniProt Q8NI60)"}
{"Compound": "Cc1cnc2nc1Nc1cccc(c1)COC/C=C/COCc1cc(ccc1OCCN1CCOCC1)N2", "test": "binding, competition with immobilised ligand", "conditions": "0.1 µM", "measurement": "remaining binding", "result": "100%"}
{"Compound": "CNC1C[S+]2CC[S+]3CC[S+](C1)[Ru-4]321([N]=C=S)[n]2c3ccc(OC)cc3c3c4c(c5cc(F)c[n+]1c5c32)C(=O)NC4=O (centres unmarked)", "test": "KinomeScan", "conditions": "0.1 µM", "how to read": "reference: untreated", "measurement": "remaining binding", "result": "88%"}
{"Compound": "C=CC(=O)N1Cc2nc(-c3cc(-c4cc(Cl)cnc4Cl)c(F)cc3F)n(-c3ccncn3)c2C1", "test": "enzyme activity, inhibitor", "conditions": "1 µM", "measurement": "inhibition", "result": "28.2%"}
{"Compound": "COc1ccc(NC(=O)Nc2ccc3c(c2)C(=O)N(C(C)CO)CC(C)C(CN(C)Cc2ccc4c(c2)OCO4)O3)cc1 (centres unmarked)", "test": "binding, competition with immobilised ligand", "conditions": "10 µM", "measurement": "remaining binding", "result": "84%"}
{"Compound": "CCN1CCN(Cc2ccc(C(=O)Nc3ccc(C)c(NCc4cnc5[nH]ccc5c4OC)c3)cc2C(F)(F)F)CC1", "test": "binding, competition with immobilised ligand", "conditions": "1 µM", "measurement": "remaining binding", "result": "100%"}
{"Compound": "C=CC(=O)N1CCc2ccc(-n3c(=O)ccc4cnc5ccc(-c6cnn(C)c6)cc5c43)cc21", "test": "KINOMEscan", "conditions": "1 µM", "how to read": "reference: DMSO control", "measurement": "remaining binding", "result": "98%"}
{"Compound": "C#CCCCCNC(=O)c1ccc(N(C(=O)C=C)c2ccc(Br)cc2)cc1", "test": "mass spectrometry profiling, refers to: ADCK3", "system": "H460 cell lysate", "conditions": "100 µM over 10 µM, UniProt Q8NI60", "how to read": "reference: high over low concentration", "measurement": "reactivity ratio", "result": 1.83}
{"Compound": "COc1cc(Nc2nc(C)cc(-c3cnn4nc(OC)ccc34)n2)cc(C(F)(F)F)c1", "test": "KINOMEscan binding", "conditions": "1000 nM", "how to read": "reference: control", "measurement": "remaining binding", "result": "91%"}
{"Compound": "CN1CCN(Cc2ccc(-c3ccc(CO[C@H]4CCC[C@@H]4NC(=O)c4cc(-c5cnn(C)c5)cnc4N)cc3)cc2)CC1", "test": "enzyme activity, inhibitor", "conditions": "0.1 µM", "measurement": "inhibition", "result": "-3%"}
{"Compound": "Nc1ncc2c(n1)-c1c([nH]c3ccc(C4=CCOCC4)cc13)CCC2", "test": "binding, competition with immobilised ligand", "conditions": "1 µM", "measurement": "remaining binding", "result": "100%"}
{"Compound": "C=C1CCCCCCCCCC(CO)C1=O (centres unmarked)", "test": "cell-free assay, competition with immobilised ligand", "conditions": "10 µM", "measurement": "remaining binding", "result": "98%"}
{"Compound": "COc1cc(Nc2nccc(-c3cnn4nc(OC)ccc34)n2)cc(C(F)(F)F)c1", "test": "binding, competition with immobilised ligand", "conditions": "1 µM", "measurement": "remaining binding", "result": "99%"}
{"Compound": "CN1CCN(Cc2ccc(NC(=O)c3cccc(C#Cc4cnc(N)c5ncccc45)c3)cc2C(F)(F)F)CC1", "test": "cell-free assay, competition with immobilised ligand", "conditions": "0.5 µM", "measurement": "remaining binding", "result": "100%"}
{"Compound": "CNC(=O)C1CCN(c2cc(C)c(F)cc2NC(=O)c2ccc(-c3cc(O)ccc3C)c(C)c2)CC1", "test": "binding, competition with immobilised ligand", "conditions": "1 µM", "measurement": "remaining binding", "result": "100%"}
{"Compound": "CNS(=O)(=O)Nc1nccc(Cc2c(C)c3ccc(Oc4ncccc4F)cc3oc2=O)c1F", "test": "binding, competition with immobilised ligand", "conditions": "10 µM", "measurement": "remaining binding", "result": "100%"}
{"Compound": "Cc1ccc(-c2c(/C=C(\\C#N)C(=O)NC(C)C)n(CCCO)c3ncnc(N)c23)cc1", "test": "cell-free assay, competition with immobilised ligand", "conditions": "1 µM", "measurement": "remaining binding", "result": "100%"}
{"Compound": "CC(=O)N1c2ccc(-c3ccc(CNC(=O)c4cn5cc(-c6cnc(N)nc6)nc(N6CCOCC6)c5n4)cc3)cc2CC[C@@H]1C", "test": "binding, competition with immobilised ligand", "conditions": "10 µM", "measurement": "remaining binding", "result": "75%"}
{"Compound": "COc1c(Cl)cccc1Nc1c(-c2ccncc2C#C[C@@]2(C)CCCN2C(=O)/C=C/CN(C)C)[nH]c2c1C(=O)NCC2", "test": "cell-free assay, competition with immobilised ligand", "conditions": "3 µM", "measurement": "remaining binding", "result": "100%"}
{"Compound": "CC(C)=CC1OC(C)(C)C2C=C3C(=O)C(Cl)=CC(O)C3C3C(O)C4OC4C(=O)C132 (centres unmarked)", "test": "cell-free assay, competition with immobilised ligand", "conditions": "10 µM", "measurement": "remaining binding", "result": "84%"}
{"Compound": "C=CC(=O)N1CCCC(n2c(=O)c3ncccc3n(Cc3ccc(Oc4ccccc4)cc3)c2=O)C1 (centres unmarked)", "test": "cell-free assay, competition with immobilised ligand", "conditions": "1 µM", "measurement": "remaining binding", "result": "93%"}
{"note": "Some of these lines once more:"}
{"Compound": "COc1cc(Nc2nc(C)cc(-c3cnn4nc(OC)ccc34)n2)cc(C(F)(F)F)c1", "test": "KINOMEscan binding", "conditions": "1000 nM", "how to read": "reference: control", "measurement": "remaining binding", "result": "91%"}
{"Compound": "C=C1CCCCCCCCCC(CO)C1=O (centres unmarked)", "test": "cell-free assay, competition with immobilised ligand", "conditions": "10 µM", "measurement": "remaining binding", "result": "98%"}
{"Compound": "CC(=O)N1c2ccc(-c3ccc(CNC(=O)c4cn5cc(-c6cnc(N)nc6)nc(N6CCOCC6)c5n4)cc3)cc2CC[C@@H]1C", "test": "binding, competition with immobilised ligand", "conditions": "10 µM", "measurement": "remaining binding", "result": "75%"}
